Published values from different studies.
Numbered parts are unrelated; each lists some results of a single study. “And” joins repeats or separate records; there may be more than shown.
UniProt Q9UM73, sequence (whole entry, unmodified, looked up): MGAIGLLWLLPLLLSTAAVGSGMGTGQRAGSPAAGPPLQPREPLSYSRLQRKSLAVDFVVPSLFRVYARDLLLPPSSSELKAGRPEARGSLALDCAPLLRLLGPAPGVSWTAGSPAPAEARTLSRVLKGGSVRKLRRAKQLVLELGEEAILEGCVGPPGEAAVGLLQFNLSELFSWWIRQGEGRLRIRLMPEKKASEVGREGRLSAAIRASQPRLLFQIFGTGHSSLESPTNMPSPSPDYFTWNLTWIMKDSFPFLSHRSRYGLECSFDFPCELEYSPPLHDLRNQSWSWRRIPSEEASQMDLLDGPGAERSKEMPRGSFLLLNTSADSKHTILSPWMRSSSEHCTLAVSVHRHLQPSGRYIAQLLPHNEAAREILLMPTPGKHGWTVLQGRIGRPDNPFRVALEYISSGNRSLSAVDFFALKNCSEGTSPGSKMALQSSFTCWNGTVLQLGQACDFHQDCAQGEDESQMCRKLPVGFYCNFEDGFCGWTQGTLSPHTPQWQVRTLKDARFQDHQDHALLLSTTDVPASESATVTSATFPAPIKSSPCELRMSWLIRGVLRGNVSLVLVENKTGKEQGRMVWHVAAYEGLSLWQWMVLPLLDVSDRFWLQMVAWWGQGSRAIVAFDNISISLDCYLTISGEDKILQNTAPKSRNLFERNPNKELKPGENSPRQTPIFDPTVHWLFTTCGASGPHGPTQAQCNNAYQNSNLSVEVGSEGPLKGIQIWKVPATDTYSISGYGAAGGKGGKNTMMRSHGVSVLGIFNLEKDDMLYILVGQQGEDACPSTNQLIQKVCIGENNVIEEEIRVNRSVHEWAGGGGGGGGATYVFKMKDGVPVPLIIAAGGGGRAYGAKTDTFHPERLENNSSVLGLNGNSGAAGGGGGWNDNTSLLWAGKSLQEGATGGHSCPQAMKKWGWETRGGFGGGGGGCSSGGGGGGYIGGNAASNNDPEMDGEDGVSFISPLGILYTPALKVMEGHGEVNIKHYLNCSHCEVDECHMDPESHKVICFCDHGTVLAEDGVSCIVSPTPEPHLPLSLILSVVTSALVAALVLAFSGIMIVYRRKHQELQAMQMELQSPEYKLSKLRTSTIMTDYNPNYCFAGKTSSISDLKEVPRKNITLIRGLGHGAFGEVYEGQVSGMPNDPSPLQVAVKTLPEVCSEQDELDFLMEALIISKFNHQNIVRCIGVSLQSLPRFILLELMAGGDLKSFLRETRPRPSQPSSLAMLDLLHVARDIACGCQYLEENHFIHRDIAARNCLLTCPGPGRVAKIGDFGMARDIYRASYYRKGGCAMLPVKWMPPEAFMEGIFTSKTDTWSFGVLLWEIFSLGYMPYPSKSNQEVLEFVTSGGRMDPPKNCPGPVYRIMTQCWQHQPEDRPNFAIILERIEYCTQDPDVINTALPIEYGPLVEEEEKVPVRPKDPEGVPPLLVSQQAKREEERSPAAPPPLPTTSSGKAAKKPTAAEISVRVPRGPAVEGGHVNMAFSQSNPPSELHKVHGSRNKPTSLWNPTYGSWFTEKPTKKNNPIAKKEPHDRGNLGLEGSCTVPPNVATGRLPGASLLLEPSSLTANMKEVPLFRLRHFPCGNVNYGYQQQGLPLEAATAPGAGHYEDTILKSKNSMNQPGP
UniProt Q13523, sequence (whole entry, looked up): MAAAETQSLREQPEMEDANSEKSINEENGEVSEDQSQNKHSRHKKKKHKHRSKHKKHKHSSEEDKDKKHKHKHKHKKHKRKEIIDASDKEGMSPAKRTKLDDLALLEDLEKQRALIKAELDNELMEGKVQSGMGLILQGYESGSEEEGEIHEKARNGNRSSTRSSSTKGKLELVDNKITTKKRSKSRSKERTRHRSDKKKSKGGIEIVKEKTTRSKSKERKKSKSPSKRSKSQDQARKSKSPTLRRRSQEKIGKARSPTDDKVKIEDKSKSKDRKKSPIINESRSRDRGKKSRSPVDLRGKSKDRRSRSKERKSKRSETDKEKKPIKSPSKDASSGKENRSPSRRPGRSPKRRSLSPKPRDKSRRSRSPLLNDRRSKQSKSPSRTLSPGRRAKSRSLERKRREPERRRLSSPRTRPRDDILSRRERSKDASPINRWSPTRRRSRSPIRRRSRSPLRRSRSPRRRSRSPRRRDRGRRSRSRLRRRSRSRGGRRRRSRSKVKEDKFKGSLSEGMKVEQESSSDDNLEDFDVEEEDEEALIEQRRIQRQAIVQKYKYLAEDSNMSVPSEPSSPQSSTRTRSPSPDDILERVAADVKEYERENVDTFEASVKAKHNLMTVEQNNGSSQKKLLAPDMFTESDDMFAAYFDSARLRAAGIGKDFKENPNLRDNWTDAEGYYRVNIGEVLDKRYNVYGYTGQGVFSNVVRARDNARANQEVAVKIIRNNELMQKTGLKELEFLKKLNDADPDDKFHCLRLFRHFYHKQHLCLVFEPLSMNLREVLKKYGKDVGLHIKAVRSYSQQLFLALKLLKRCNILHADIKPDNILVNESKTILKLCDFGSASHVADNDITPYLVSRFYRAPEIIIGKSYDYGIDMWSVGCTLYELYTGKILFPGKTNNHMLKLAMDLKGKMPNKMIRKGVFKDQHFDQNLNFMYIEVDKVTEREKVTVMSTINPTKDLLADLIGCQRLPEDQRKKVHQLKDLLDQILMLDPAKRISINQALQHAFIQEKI

Set 1
Species: human
Sample: microsomes or S9
Concentration: 2 µM
Time: 0.5 h
SMILES	remaining compound
Cc1cc(C)c(S(=O)(=O)NCCc2cc3c(C)ccc(C)c3[nH]c2=O)c(C)c1	3.49%
CC1(C)CC(NS(=O)(=O)c2cc(Cl)ccc2Cl)CC(C)(C)N1	80.9%
Cc1cc(C)n(-c2nc(NCc3ccco3)c3c4c(sc3n2)COC(C)(C)C4)n1	7.81%
COC(=O)CC(c1c(O)cc(C)n(CCc2ccc(O)cc2)c1=O)c1cnn2cccnc12 (stereo not drawn)	18.4%
CCO[C@@H]1CCC[C@H](CC(=O)c2cccs2)[C@H]1C(=O)c1cccs1	2.81%
CCC(NC(=O)C1=NNC(=O)CC1)c1ncccc1C (stereo not drawn)	> 99.9%
NC(=O)C1CCCC1NC(=O)c1cc2ccccn2c1 (stereo not drawn)	> 100%

Set 2
Target: Proto-oncogene tyrosine-protein kinase ROS (ROS1, Homo sapiens, UniProt P08922)
UniProt P08922, sequence (whole entry, looked up): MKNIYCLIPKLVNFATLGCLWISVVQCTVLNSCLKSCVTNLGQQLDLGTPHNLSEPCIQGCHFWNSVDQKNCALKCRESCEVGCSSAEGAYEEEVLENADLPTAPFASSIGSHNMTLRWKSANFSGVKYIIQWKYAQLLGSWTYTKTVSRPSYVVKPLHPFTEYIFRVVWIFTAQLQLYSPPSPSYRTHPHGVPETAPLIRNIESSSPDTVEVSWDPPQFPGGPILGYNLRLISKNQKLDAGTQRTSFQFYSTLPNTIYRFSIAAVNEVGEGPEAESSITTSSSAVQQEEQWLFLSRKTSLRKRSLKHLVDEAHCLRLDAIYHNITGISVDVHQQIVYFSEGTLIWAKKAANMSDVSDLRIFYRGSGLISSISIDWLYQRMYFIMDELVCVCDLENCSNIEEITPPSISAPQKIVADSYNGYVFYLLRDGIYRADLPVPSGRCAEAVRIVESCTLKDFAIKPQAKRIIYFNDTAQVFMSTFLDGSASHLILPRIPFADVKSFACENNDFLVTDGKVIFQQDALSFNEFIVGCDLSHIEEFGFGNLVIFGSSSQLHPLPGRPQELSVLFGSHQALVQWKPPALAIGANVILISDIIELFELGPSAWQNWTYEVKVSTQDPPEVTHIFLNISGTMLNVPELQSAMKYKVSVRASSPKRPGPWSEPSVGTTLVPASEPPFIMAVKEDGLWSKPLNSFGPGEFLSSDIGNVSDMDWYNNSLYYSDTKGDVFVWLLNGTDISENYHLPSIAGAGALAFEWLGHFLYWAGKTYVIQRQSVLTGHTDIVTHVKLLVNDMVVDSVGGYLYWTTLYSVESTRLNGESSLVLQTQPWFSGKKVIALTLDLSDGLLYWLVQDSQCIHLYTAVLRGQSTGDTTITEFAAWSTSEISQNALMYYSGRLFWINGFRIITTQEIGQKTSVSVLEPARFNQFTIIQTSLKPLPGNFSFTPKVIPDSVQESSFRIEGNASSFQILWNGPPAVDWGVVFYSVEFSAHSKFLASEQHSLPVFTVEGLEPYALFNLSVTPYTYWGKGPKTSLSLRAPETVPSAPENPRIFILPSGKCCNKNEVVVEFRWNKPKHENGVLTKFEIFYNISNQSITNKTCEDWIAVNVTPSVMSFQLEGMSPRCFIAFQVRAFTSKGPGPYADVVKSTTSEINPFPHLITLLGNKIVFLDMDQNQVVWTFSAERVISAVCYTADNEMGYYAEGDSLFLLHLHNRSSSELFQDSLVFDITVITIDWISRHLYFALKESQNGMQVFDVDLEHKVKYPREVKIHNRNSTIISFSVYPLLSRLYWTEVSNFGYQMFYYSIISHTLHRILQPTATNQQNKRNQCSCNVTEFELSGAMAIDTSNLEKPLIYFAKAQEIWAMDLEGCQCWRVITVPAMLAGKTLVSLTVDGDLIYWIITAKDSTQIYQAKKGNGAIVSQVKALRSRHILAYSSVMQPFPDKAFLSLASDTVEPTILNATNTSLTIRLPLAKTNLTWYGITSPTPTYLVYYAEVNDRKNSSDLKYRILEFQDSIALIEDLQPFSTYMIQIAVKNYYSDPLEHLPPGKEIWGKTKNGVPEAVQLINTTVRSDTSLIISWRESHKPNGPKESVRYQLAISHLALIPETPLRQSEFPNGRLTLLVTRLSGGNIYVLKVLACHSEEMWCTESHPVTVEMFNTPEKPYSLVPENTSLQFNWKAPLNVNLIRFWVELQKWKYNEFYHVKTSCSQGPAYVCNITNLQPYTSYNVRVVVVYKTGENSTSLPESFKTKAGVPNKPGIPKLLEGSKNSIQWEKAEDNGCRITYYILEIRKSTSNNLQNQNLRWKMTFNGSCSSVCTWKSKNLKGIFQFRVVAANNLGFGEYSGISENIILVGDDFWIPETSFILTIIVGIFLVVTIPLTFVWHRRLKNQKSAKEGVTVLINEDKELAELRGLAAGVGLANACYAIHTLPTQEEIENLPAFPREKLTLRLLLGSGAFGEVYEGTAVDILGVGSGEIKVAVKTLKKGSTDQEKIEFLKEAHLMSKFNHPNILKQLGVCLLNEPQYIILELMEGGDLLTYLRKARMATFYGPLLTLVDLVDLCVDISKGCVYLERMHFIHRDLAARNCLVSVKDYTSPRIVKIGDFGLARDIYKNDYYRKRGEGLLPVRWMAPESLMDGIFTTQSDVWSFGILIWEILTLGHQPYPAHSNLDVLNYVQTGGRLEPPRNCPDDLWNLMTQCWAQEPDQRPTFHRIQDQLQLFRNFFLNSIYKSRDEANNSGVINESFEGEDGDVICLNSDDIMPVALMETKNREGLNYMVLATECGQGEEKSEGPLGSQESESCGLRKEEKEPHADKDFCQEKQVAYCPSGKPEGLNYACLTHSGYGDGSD
Observed: enzyme activity
Mode: inhibitor
Concentration: 0.5 µM
Relative to: control
Compound	remaining activity
COc1cc2ncnc(Nc3ccc(O)c(Br)c3)c2cc1OC	65.7%
CCN(CC)C(=O)c1ccc(Nc2nc(OCC3CCCCC3)c3[nH]cnc3n2)cc1	69.9%
CCN(CC)CCNC(=O)c1c(C)[nH]c(/C=C2\C(=O)Nc3ccc(Cl)cc32)c1C	43.9%
c1ccc(-c2[nH]ncc2-c2ccnc3ccccc23)nc1	102%
O=C(Nc1cccc(Nc2nccc(Nc3cccc(C(F)(F)F)c3)n2)c1)C1CC1	65.5%
N#C/C(=C\c1ccc(O)c(O)c1)C(=O)NCc1ccccc1	101%
CN(C)C[C@H]1CCn2c(c(C3=C(c4cn(C)c5ccccc45)C(=O)NC3=O)c3ccccc32)C1	87.1%
Cc1cn(-c2cc(NC(=O)c3ccc(C)c(Nc4nccc(-c5cccnc5)n4)c3)cc(C(F)(F)F)c2)cn1	99.4%
CCN(CC)CCNC(=O)c1c(C)[nH]c(/C=C2\C(=O)Nc3ccc(F)cc32)c1C	71.6%
O=C1C(Cl)=C(N2C(=O)CCC2=O)C(=O)c2ccccc21	95.8%
O=C1c2ccccc2-c2n[nH]c3cccc1c23	76%
O=c1cc(-c2cccc3c2Sc2ccccc2S3)oc(N2CCOCC2)c1	106%
N#Cc1c(NC(=O)c2cccc3ccccc23)sc2c1CCCC2	96.8%
Cn1nc2c3c(cccc31)C(=O)c1ccccc1-2	104%
Ic1cccc(CSc2nnc(-c3ccncc3)o2)c1	99.3%
C[C@@H]1CCN(C(=O)CC#N)C[C@@H]1N(C)c1ncnc2[nH]ccc12	94.1%
Cc1nc2cc3nc(-c4cccs4)cnc3cc2n1C	97.9%
Cc1cc2ncc(-c3ccccc3)nc2cc1C	100%
CN([C@@H](Cc1ccc(OS(=O)(=O)c2cccc3cnccc23)cc1)C(=O)N1CCN(c2ccccc2)CC1)S(=O)(=O)c1cccc2cnccc12	96.5%
Nc1cccc(-c2cc3c(Oc4cccc(O)c4)ncnc3[nH]2)c1	39.7%
COc1cc2c(cc1OC)-c1[nH]nc(Nc3cccc(F)c3)c1C2	97.5%
CCOc1nc(NC(=O)Cc2cc(OC)ccc2OC)cc(N)c1C#N	97.4%
c1ccc(-c2cnc(Nc3ccc(OCCN4CCCC4)cc3)s2)cc1	96.9%
COc1cc2ncnc(Nc3cccc(Cl)c3)c2cc1OC	91.2%

Set 3
Cell line: mouse MPNST tumor cells
Method: high-content nuclear imaging
Item: cell number
Concentration: 10 µM
Time: 12 h
Notes: mean of 2 replicates
Relative to: plate mean
Direction: higher = more cells
Structure (SMILES)	nuclei count
Nc1ccc(C(=O)NCC(=O)O)cc1	-0.165 z-score
Cc1cc(-c2nc(-c3ccc(OC(F)(F)F)cc3)no2)nn1Cc1ccnc(N2CCN(C3CC3)CC2)c1	-0.962 z-score
O=C(Oc1nsnc1N1CCCCC1)N1CCCCC1	0.728 z-score
Nc1ncnc2c1ncn2C1CCCO1 (stereo not drawn)	0.523 z-score
CC[C@@H](C)c1ccc(NC(=O)Cn2cnc3c2c(=O)n(C)c(=O)n3C)cc1 (racemic)	-0.0377 z-score
CCCC(CCC)C(=O)O	0.765 z-score and 0.737 z-score and 0.404 z-score
COc1cc2nc(-c3cc(F)ccc3O)nc(N[C@@H]3CNC[C@H]3C(C)(C)O)c2cc1OC	-5.41 z-score
CC1(C)O[C@@H]2[C@@H](CO[C@@]3(COS(N)(=O)=O)OC(C)(C)O[C@@H]23)O1	1.89 z-score and 0.771 z-score and 1.27 z-score
Clc1cccc(Cl)c1/C(=C/n1cncn1)OC1CCCCCC1	-0.625 z-score
CCN(CC)C(=O)c1ccc(O)c(OC)c1	1.02 z-score
N=C(N)NCCC[C@@H](NC(=O)C(c1ccccc1)c1ccccc1)C(=O)NCc1ccc(CNC(N)=O)cc1	2.39 z-score

Set 4
SMILES: O=C(O)[C@H]1[C@H](Cn2nnc3ccccc3c2=O)CC[C@@H]1C(=O)c1ccc(OCCC2CCOCC2)cc1
Concentration: 1 µM
target	test	remaining binding [%]
Serine/threonine-protein kinase PAK 2 (PAK2, Homo sapiens, UniProt Q13177)	cell-free assay, competition with immobilised ligand	69
Aurora kinase A (AURKA, Homo sapiens, UniProt O14965)	cell-free assay, competition with immobilised ligand	97
Serine/threonine-protein kinase PRP4 homolog (PRPF4B, Homo sapiens, UniProt Q13523)	cell-free assay, competition with immobilised ligand	67
Proto-oncogene tyrosine-protein kinase receptor Ret (RET, Homo sapiens, UniProt P07949, M918T)	cell-free assay, competition with immobilised ligand	76
Mitogen-activated protein kinase 8 (MAPK8, Homo sapiens, UniProt P45983)	cell-free assay, competition with immobilised ligand	72
ALK tyrosine kinase receptor (ALK, Homo sapiens, UniProt Q9UM73)	cell-free assay, competition with immobilised ligand	100
Tyrosine-protein kinase FRK (FRK, Homo sapiens, UniProt P42685)	cell-free assay, competition with immobilised ligand	100
Epidermal growth factor receptor (EGFR, Homo sapiens, UniProt P00533, L858R)	cell-free assay, competition with immobilised ligand	95
Megakaryocyte-associated tyrosine-protein kinase (MATK, Homo sapiens, UniProt P42679)	cell-free assay, competition with immobilised ligand	83
Serine/threonine-protein kinase WNK2 (WNK2, Homo sapiens, UniProt Q9Y3S1)	cell-free assay, competition with immobilised ligand	99
Dual specificity mitogen-activated protein kinase kinase 7 (MAP2K7, Homo sapiens, UniProt O14733)	cell-free assay, competition with immobilised ligand	96
Serine/threonine-protein kinase 35 (STK35, Homo sapiens, UniProt Q8TDR2)	cell-free assay, competition with immobilised ligand	100
Cyclin-dependent kinase 19 (CDK19, Homo sapiens, UniProt Q9BWU1)	competition binding	100
Inhibitor of nuclear factor kappa-B kinase subunit epsilon (IKBKE, Homo sapiens, UniProt Q14164)	cell-free assay, competition with immobilised ligand	90
ALK tyrosine kinase receptor (ALK, Homo sapiens, UniProt Q9UM73, C1156Y)	cell-free assay, competition with immobilised ligand	100
Serine/threonine-protein kinase 17B (STK17B, Homo sapiens, UniProt O94768)	cell-free assay, competition with immobilised ligand	100
Ephrin type-A receptor 5 (EPHA5, Homo sapiens, UniProt P54756)	cell-free assay, competition with immobilised ligand	100
Serine/threonine-protein kinase ICK (CILK1, Homo sapiens, UniProt Q9UPZ9)	binding, competition with immobilised ligand	98

Excerpt of the above (set 1):
SMILES	remaining compound
NC(=O)C1CCCC1NC(=O)c1cc2ccccn2c1 (stereo not drawn)	> 100%
Cc1cc(C)c(S(=O)(=O)NCCc2cc3c(C)ccc(C)c3[nH]c2=O)c(C)c1	3.49%
COC(=O)CC(c1c(O)cc(C)n(CCc2ccc(O)cc2)c1=O)c1cnn2cccnc12 (stereo not drawn)	18.4%
CC1(C)CC(NS(=O)(=O)c2cc(Cl)ccc2Cl)CC(C)(C)N1	80.9%
CCC(NC(=O)C1=NNC(=O)CC1)c1ncccc1C (stereo not drawn)	> 99.9%
Cc1cc(C)n(-c2nc(NCc3ccco3)c3c4c(sc3n2)COC(C)(C)C4)n1	7.81%
CCO[C@@H]1CCC[C@H](CC(=O)c2cccs2)[C@H]1C(=O)c1cccs1	2.81%
